Published values pooled from the literature.
“And” joins repeats or separate records; there may be more than shown. ± marks the error that the study gave.

Structure (SMILES) | target | assay | test system | conditions | how to read | measurement | result
CC[C@H](C)[C@@H]1NC(=O)[C@H](Cc2c[nH]c3ccccc23)NC(=O)[C@H](Cc2ccccc2)N(C)C(=O)[C@H](C(C)C)NC(=O)[C@H](CC(C)C)NC(=O)[C@H](Cc2ccccc2)NC(=O)CSC[C@@H](C(=O)N[C@@H](CC(N)=O)C(N)=O)NC(=O)[C@H](Cc2ccccc2)NC1=O | STING1 (Homo sapiens, UniProt Q86WV6, H232R) | thermal stability, DSF |  | 50 µM |  | ΔTm | 2.53 °C
CC(C=CC=C(C)C=CC1=C(C)CCCC1(C)C)=CC=O | Rhodopsin (RHO, Homo sapiens, UniProt P08100, P23H) | ER retention, immunostaining co-localization, refers to: opsin with calnexin | COS-7 transfected P23H | 20.00 µM |  | Pearson correlation coefficient | 0.58
CCOC(=O)C(CC)(CCCSCCOCCOCCNC(=O)OC(C)(C)C)NC(=O)c1ccc(C2CC2)c(Cc2ccc(F)cc2)n1 (racemic) | Cnr2 (Mus musculus, UniProt P47936) | cAMP, agonist |  |  |  | Emax | 81%
CC(=O)N[C@H]1[C@H]([C@H](O)[C@H](O)CNC(=O)c2ccc(-c3ccccc3)cc2)O[C@@](OCc2cn(CC(O)Cn3c([N+](=O)[O-])cnc3C)nn2)(C(=O)O)C[C@@H]1O (stereo partly drawn) | CD22 (Homo sapiens, UniProt P20273) | isothermal titration calorimetry |  |  |  | ΔH | -8.26 ± 0.4 kcal/mol
O=C1c2sc(-c3ccc(N4CCC(CO)CC4)nc3F)nc2CCN1c1cccnc1 | ADRA2C (Homo sapiens, UniProt P18825) | ligand displacement, radioligand |  | 1 µM |  | inhibition | -1%
Cc1cc(C)cc(COc2cc3c(cc2OCc2cc(C)cc(C)c2)C2CC(O)(Cc4cn(CCOCCOCCNC(=O)CCCCC5SCC6NC(=O)NC65)nn4)CC(C)N2CC3)c1 (stereo not drawn) | Exportin-1 (XPO1, Homo sapiens, UniProt O14980) | biotinylated probe pull-down |  | 10 µM probe | reference: heavy over light | SILAC ratio | 2.85
O=C(N1CCCC1)n1cc(-c2ccc(-c3ccccc3)cc2)nn1 | Isoamyl acetate-hydrolyzing esterase 1 homolog (Iah1, Mus musculus, UniProt Q9DB29) | probe labelling, inhibitor, competitive ABPP-SILAC, refers to: Iah1 | mouse T cells | concentration not given, 4 h, in situ, single peptide | reference: treated over DMSO, lower = more inhibition | SILAC ratio | 1.27 and 0.98 and 1.24 and 1.29
Cc1cn(CC(=O)N(CC(=O)N[C@H]2COC[C@@H]2N(CC(=O)NCCOCCOCC(N)=O)C(=O)Cn2cnc3c(N)ncnc32)[C@H]2COC[C@@H]2NC(=O)CN(C(=O)Cn2cnc3c(N)ncnc32)[C@H]2COC[C@@H]2NC(=O)CN(C(=O)Cn2cnc3c(=O)[nH]c(N)nc32)[C@H]2COC[C@@H]2NC(=O)CN(C(=O)Cn2cc(C)c(=O)[nH]c2=O)[C@H]2COC[C@@H]2NC(=O)CN(C(=O)Cn2cnc3c(=O)[nH]c(N)nc32)[C@H]2COC[C@@H]2NC(=O)CN(C(=O)Cn2cc(C)c(=O)[nH]c2=O)[C@H]2COC[C@@H]2NC(=O)CN(C(=O)Cn2cnc3c(N)ncnc32)[C@H]2COC[C@@H]2NC(=O)CN(C(=O)Cn2cnc3c(=O)[nH]c(N)nc32)[C@H]2COC[C@@H]2N)c(=O)[nH]c1=O | complementary RNA | duplex formation, UV melting curve fit | PBS | 1 µM |  | ΔH | -69.8 ± 0.4 kcal/mol
COC(=O)C1(C)C=C(C(=O)OC(C)(C)C)C(=O)CC1 (stereo not drawn) | MAPK8 (Homo sapiens, UniProt P45983) | competitor, fluorescence polarization |  | 3.906 µM, added: D-peptide tracer |  | fraction bound | 0.949
CCC1(CC)C(=O)N(c2cccc(CN3CCN(Cc4cccc5cccnc45)CC3)c2)C1=O | Dipeptidyl peptidase 8 (Homo sapiens, UniProt Q6V1X1) | inhibitor |  | added: GP-AMC substrate | reference: Ki' DPP9 over Ki' DPP8 | selectivity ratio | 0.2
N#CN1CC[C@H](C(=O)Nc2nc3c(s2)CN(C(=O)Cn2cc(COCCOCCOCCOCCNC(=O)CCCC[C@@H]4SC[C@@H]5NC(=O)N[C@@H]54)nn2)CC3)C1 | Isochorismatase domain-containing protein 1 (Homo sapiens, UniProt Q96CN7) | probe binding, affinity probe, neutravidin pull-down LC-MS/MS | HEK293T, cell lysate | 5 µM, 1 h, single replicate, unit not given | higher = more pulled down | iBAQ abundance | 3.77e+08 and 2.11e+08 and 1.43e+08
CCCCCC(O)/C=C/C=O (stereo not drawn) | Protein phosphatase 1G (Homo sapiens, UniProt O15355) | competitive isoTOP-ABPP, refers to: PPM1G cysteine peptide | Ramos soluble proteome | 100 µM, added: iodoacetamide probe | reference: DMSO over compound-treated, higher = stronger cysteine blockade | isoTOP-ABPP competition ratio | 1.3
